Results of several laboratories.
Parts stem from different laboratories: compare values within a part only. “And” joins repeats or separate records; there may be more than shown.

Study 1 — technique: protein binding microarray; molecule type: double-stranded DNA, one strand shown; matrix: in vitro; tested at: not given; relative to: not given; reading: higher = stronger binding
Target: Histone acetyltransferase KAT6A, winged helix 2, GST fusion (KAT6A, Homo sapiens, UniProt Q92794, residues 85-181)
Setting: 8-mer, flanks averaged, mean of 2 arrays, mostly near background
Residues (chain): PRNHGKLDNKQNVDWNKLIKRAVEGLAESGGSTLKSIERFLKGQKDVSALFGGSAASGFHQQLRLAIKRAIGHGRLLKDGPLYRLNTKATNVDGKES
With `GGTGTAAC` the E-score was 0.0833.
With `AAGCGTCG` the E-score was 0.0135.
`CCGCCTGC` has an E-score of 0.193.
With `CCACAACA` the E-score was -0.0887.
For `GGAAAGAA`, the E-score was 0.179.
With `ATCGGGCA` the E-score was 0.00954.
The E-score of `AGAAGTAC` is reported as -0.149.
For `AACGACCA`, the E-score was -0.0281.

Study 2 — technique: protein-binding microarray; molecule type: double-stranded DNA, one strand shown; matrix: in vitro; tested at: 940 nM top; setting: 60-bp whole probe; with: salmon DNA 0.4 mg/ml; relative to: random background probes; reading: higher = stronger binding; constant ends, left off below: GCCTAGCAC … GTCTTGATTCGCTTGACGCTGCTG
Target: Interferon regulatory factor 5, full length, phosphomimetic (IRF5, Homo sapiens, UniProt Q13568-2, residues 1-514, S451D/S453D/S456D/S462D)
`TAAGGTTTCCTTTCCCTTTAGTGCTAG` — result for “fitted relative affinity”: 1.9 z-score.
Under “fitted relative affinity”, `GACGATATCGGGCTTCGAGACGTGCTA` is recorded as -0.162 z-score.
Under “fitted relative affinity”, `TTAGGTTTCGACACTTGGTTAGTGCTA` is recorded as 7.16 z-score.
Under “fitted relative affinity”, `CGACATTTTTATTTGCCTTAGTGCTAG` is recorded as 0.695 z-score.
`TCATGTCTGGGCATTTTTACTGTGCTA`: “fitted relative affinity” 0.0771 z-score.
`GACGGTATCCTTATCGTGACGTGCTAG` — result for “fitted relative affinity”: -0.052 z-score.
Under “fitted relative affinity”, `GACGGTATCGAGTATCGGGACGTGCTA` is recorded as 4.66 z-score.
For `TTAGGTTTCGGACTAGGTTAGTGCTAG`, “fitted relative affinity” read 7.86 z-score.

Study 3 — observed: enzyme activity; mode: inhibitor; tested at: 20 µM
Target: Replicase polyprotein 1ab, polymerase (rep, Severe acute respiratory syndrome coronavirus 2, UniProt P0DTD1)
The inhibition of `CC(CC(C(N)=O)(c1ccccc1)c1ccccc1)N(C)C` (stereo not drawn) is reported as 0.45%.
`COc1ccccc1N1CCN(CC(O)COc2cccc3ccccc23)CC1` (stereo not drawn) has an inhibition of -0.46%.
With `CCC[C@@H]1CC(=O)N([C@@H](CC)C(N)=O)C1` the inhibition was -10.5%.
`C[C@@H](c1nc(-c2ccc(C#N)cc2)cs1)[C@](O)(Cn1cncn1)c1ccc(F)cc1F` has an inhibition of -5.23%.
The inhibition of `O=c1[nH]c2cc(Cl)ccc2c(O)c1-c1cccc(Oc2ccccc2)c1` is reported as 3.35%.
For `COc1ccc([C@@H]2CC(=O)c3c(O)cc(O)cc3O2)cc1O`, the inhibition was -3.24%.
`NC(=O)c1ccc(I)c([N+](=O)[O-])c1` gave an inhibition of -5.71%.
With `NC[C@H]1O[C@H](O[C@H]2[C@H](O)[C@@H](O[C@H]3O[C@H](CO)[C@@H](O)[C@H](N)[C@H]3O)[C@H](N)C[C@@H]2N)[C@H](N)[C@@H](O)[C@@H]1O` the inhibition was -8.51%.
For `CC1(C)[C@@H]2CC[C@@]1(C)C(=O)C2`, the inhibition was 1.49%.
With `N[C@H]1CC[C@H](N[C@@H]2C[C@H]2c2ccccc2)CC1` the inhibition was -2.26%.
With `CCCCCC(O)CCCC(=O)O` (stereo not drawn) the inhibition was -2.7%.
`O=C(O)CC[C@H]1CC[C@@](c2cc(F)ccc2F)(S(=O)(=O)c2ccc(Cl)cc2)CC1` has an inhibition of -1.27%.
With `O=C1OC(c2ccc(O)cc2)(c2ccc(O)cc2)c2ccccc21` the inhibition was 21.1%.
`CC(=O)OCC1=C(C(=O)O)N2C(=O)[C@@H](NC(=O)CSC(=NC(C)C)NC(C)C)[C@H]2SC1` gave an inhibition of 0.84%.
The inhibition of `C[n+]1c2cc(N)ccc2cc2ccc(N)cc21` is reported as -46.2%.
For `CC(C(=O)O)c1ccc2c(c1)Cc1cccnc1O2` (stereo not drawn), the inhibition was 0.51%.
`CC(=O)OCC(=O)[C@H]1CC[C@H]2[C@@H]3CC[C@H]4C[C@H](O)CC[C@]4(C)[C@H]3C(=O)C[C@]12C` has an inhibition of -0.93%.
With `COc1cc2nc(N3CCCN(C)CC3)nc(NC3CCN(Cc4ccccc4)CC3)c2cc1OC` the inhibition was 13.7%.

Single results of other studies — tested at: 10 µM
For `O=C(/C=C/c1ccc2ccccc2n1)c1ccncc1`, the inhibition was -29.1% and -20% (SARS-CoV-2; cytopathic effect; Vero E6).
With `O=C1C2CC=CCC2C(=O)N1SC(Cl)(Cl)Cl` (stereo not drawn) the inhibition was 5% (Replicase polyprotein 1ab, 3C-like proteinase (rep, Middle East respiratory syndrome-related coronavirus, UniProt K9N7C7); enzyme activity).

Repeated from above (study 1):
With `GGTGTAAC` the E-score was 0.0833.
With `AAGCGTCG` the E-score was 0.0135.
`CCGCCTGC` has an E-score of 0.193.
With `CCACAACA` the E-score was -0.0887.
For `GGAAAGAA`, the E-score was 0.179.
